Measurements of several laboratories.
Each numbered part is a random draw from the data of one study; scales do not carry over between parts.

Study 1 — technique: RNA Bind-n-Seq; molecule type: RNA; medium: in vitro; tested at: not given; baseline: input RNA pool; reading: higher = stronger binding
Target: RING finger protein unkempt homolog, zinc fingers 1-6, GST-SBP tag (UNK, Homo sapiens, UniProt Q9C0B0, residues 30-357)
Chain of UniProt Q9C0B0 (30-357, looked up): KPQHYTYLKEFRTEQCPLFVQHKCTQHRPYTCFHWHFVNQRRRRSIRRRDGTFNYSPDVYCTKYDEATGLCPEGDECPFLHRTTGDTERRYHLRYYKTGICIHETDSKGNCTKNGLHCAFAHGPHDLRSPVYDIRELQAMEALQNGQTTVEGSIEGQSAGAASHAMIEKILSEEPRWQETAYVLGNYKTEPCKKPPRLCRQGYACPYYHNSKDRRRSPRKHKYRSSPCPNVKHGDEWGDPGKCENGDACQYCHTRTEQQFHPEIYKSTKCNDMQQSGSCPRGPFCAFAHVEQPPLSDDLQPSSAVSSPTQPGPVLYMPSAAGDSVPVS
Notes: RNA with constant flanks, human-mouse chimeric sites, ends assumed
Constant ends, left off below: GGGAGUUCUACAGUCCGACGAUC … CAACAGAGGAUUGAGCAUCA
| Oligonucleotide | bound/input enrichment |
| --- | --- |
| AGAAUCUUGGGACUGUUUUACUUAAUUGGUCAUUGAUAGCUUAACAAACAUGGAGAUAAGAUUAGAAAUCUUGACAUCAACAAGUAUUAAGCAGAAAAAACCAUGGCCCAGAGUAUCCUG | 0.12 ratio |
| CCCCAAUACCAUUUGCAAGAGUUGGAAUGCACUCUCUUUUUUAAAAAACAUGUAUACAUUUUAGGGCUGUAGAUUUACUUUCCUAUUUUUGUUUUUCAUUGCUGACUUUUGAGCACAGAA | 0.969 ratio |
| CUCAUGGCUGCAGAAACAGGAAGUGGAAAAACUGGUGCUUUUAGUAUUCCAGUUAUCCAGAUAGUGUAUGAAACUCUGAAAGACCAACAGGAAGGAAAGAAAGGGAAAACAACUAUUAAA | 0.573 ratio |
| CUCAUGGCUGCAGAAACAGGAAGUGGAAAAACUGGUGCAUUUAGUAUUCCCGUUAUCCAGAUAGUGUAUGAAACUCUGAAAGACCAACAGGAAGGCAAGAAAGGGAAAACAACAAUUAAA | 1.37 ratio |
| ACCAUUUUCGCGGUUCAGGCUUUGUGUGUAGUUCACUUACGGUAUUAAAUUAUUAUUGCCCUUAGUUUAAAGUAAGGAUAAUUGCAUUUAAAGAGGUUACUGAAUGUUACUCUGAAACUU | 0.305 ratio |
| GACAGUGAAGAAGAAAUUAGAGAAGCAUUCCGUGUGUUUGAUAAGGAUGGCAAUGGCUAUAUUAGUGCAGCAGAGCUUCGCCAUGUGAUGACAAACCUUGGAGAGAAGUUAACAGAUGAA | 4.78 ratio |
| GAGCCCAGCCGGCAGUUUGUAAAGGACUCAAUUCGGCUGGUUAAAAGAUGCACUAAACCCGACAGAAAAGAAUUCCAGAAGAUUGCCAUGGCAACAGCUAUAGGAUUUGCUAUCAUGGGA | 0.165 ratio |
| ACACAAUAUGAGACCAACAGCAUGGACUUCAAAGUCGGGGCAGAUGGGACAGUCUUCGCCACCCGGGAGUUGAAGAUCCCCUCCGAGCAGGUGGCGUUCACGGUGACUGCAUGGGACAGC | 0.165 ratio |
| AGCACAACCCCAGCAAAGCUCAGGAACCCUUGUACAAGUGAACAAAACUGCACCAGCCCAUUUAGCUACAAAAAUGUGCUUAGUCUUACUGACAGAGGAGAGUUUUUUAAUGAACUUGUU | 1.4 ratio |
| GUAUUUGUGCGCUCCCCACUCGUGUUUUUAAGUGUAUUUUUAUAAGAUACAUGUAUUUACAAUUGAGCUUUUGUUACUAUAAUACUGAAUGCUACUGGAGAUUAUGAAAAAUGUUUCAAU | 0.158 ratio |
| UGGCGCCUGCGCUCCCCACUCGUGUUUGUAUUUUUAUUUUUAUAAGAUACAUGUAUUUACAAUUGAGUUUUUGAUUAAUAAUGCUGAAAUGCUACUGGAGAUUAUGAAAAAUGUUUCAAU | 0.29 ratio |

Study 2 — technique: RNA Bind-n-Seq; molecule type: RNA; medium: in vitro; tested at: 365 nM; baseline: no-protein control; reading: higher = stronger binding
Target: RNA binding protein fox-1 homolog 2, RRM domain, GST-SBP tag (RBFOX2, Homo sapiens, UniProt O43251-10, residues 100-194)
Notes: natural RNA segment, single round, ends assumed
Constant ends, left off below: GGGAGUUCUACAGUCCGACGAUC … UGGAAUUCUCGGGUGCCAA
Construct (chain): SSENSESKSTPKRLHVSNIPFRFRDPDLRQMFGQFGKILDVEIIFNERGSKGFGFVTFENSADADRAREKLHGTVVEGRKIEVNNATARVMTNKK
| Oligonucleotide | RBNS enrichment (R) |
| --- | --- |
| GCUUGUUGUUUGAGAAGUUUAACCCCGUUGCUUGUUGUUCUGCAGCCCUGUCUACUUGGGCACCCCCACCACCUGUUAGCUGUGGUUGUGCACUGUCUUUUGUAGCUCUG | 16.6 |
| ACAGUAGAGAAACACUGUAGUUCACAGACCAUGCAACCGUGUUUCCACGAGAUGUUAUUACAACAAAUGAAGAAUUUUUUUCCUUUUUUUUCAUUUUAAUCUUUUUUGAC | 0.426 |
| GAUGACAAGCUGUCUCCUGCGGAAGUGUAGCUUGUGGGUAUAGAGUUCUGUCUGCACCUGCCCUCUAGUGACCCUGGGCCUGUCCUCUGUAGAGACUCUGGUACAGAGGG | 0.426 |
| UUAAACAUUAAACCAAACUUCUGGUUUCCUUUAGACAAUCCAAGAGAAAUAAAAGGCCCUACUUUCAGCUUGGCUUUCUUUGUCCCUUUGUGAAAACUACAUAUUCCCUU | 0.245 |
| UUUGUUUAUUUUUUGGAAGAGACAAAGAUUUCUUCUGCACUCUGAGCCCAUAGGUCUCAGAGAGUUAAUAGGAGUAUUUUUGGGCUAUUGCAUAAGGAGCCACUGCUGCC | 0.528 |
| UCACUAGUGGAAAUAAAUUGUAUUAUACCAUGAUCUACUGGCUUUUUAAAACUGUAUUAAAUAUGCACAUUUUUGGUAUAGCUAUUAUCAUUUGUAUGUAUAUAUUGUAU | 0.491 |
| CUGGACAGGGCUUUGCCCUUGGAGGAUCCCCAGGUGGCCUUACCCGUGAUUCUUACUCGGCAUCCUCCAUUCCCCAAACUCCCUCCUCCCUGUUAAAUGUCAACCUAGAC | 0.625 |
| CACUGCUACUUUGGCGUUAUUACUGUGUUCUCAGAAACUCGUUGUGCACCACUAGGAAUUAGUAGUAGAAAAAAAAAAACAAUAACAAAAAAAAAAAACAACUGGAAAUG | 0.722 |
| UAAUCUUGGGAUCGUAUUUUUAUAUCAUAUUCACAUACUUGUUUUUUUAAUUGGUGUUAGAUGACAUGAUUAAUAAAAAAGGCAAGAUAUUUUCAGAAUUUGAAUUUCAG | 0.585 |
| AAGCUUUUUGGUGUGAACUGGAAAAAAAAAAAAGGUGCAUUUUUCUCCGUGAAGGUCUUAGUGUAUGUGUUUUGCUUGUUAACUGUCAUCGUGGUUGGGAUUAGACCUGU | 0.499 |
| ACCAGGGUCACUUCCACUGUCAGGGGCCUGAGGGGGCAGCUGUGGCUGCAGGGCUGCUCUGGACUGAGGGGUCCCAGGCCCCGAGGGGUGCACGCCUGGCUCCCCUUGGC | 0.611 |
| CAAGAAGAUAUAUGUUUGUAUAUCUACAUGGCAUCCUGCACCUCAGAGCUAAGACAGGUUGCACGUCACUCUUCUGUUGUGGGUGGUGAUUGUGUCCAAUAUGGUGUCUC | 0.358 |

Study 3 — technique: protein binding microarray; molecule type: double-stranded DNA, one strand shown; medium: in vitro; tested at: not given; baseline: not given; reading: higher = stronger binding
Target: Histone acetyltransferase KAT6A, winged helix 1, GST fusion (KAT6A, Homo sapiens, UniProt Q92794, residues 1-85)
Notes: 8-mer, flanks averaged, mean of 2 arrays, mostly near background
Target sequence (chain): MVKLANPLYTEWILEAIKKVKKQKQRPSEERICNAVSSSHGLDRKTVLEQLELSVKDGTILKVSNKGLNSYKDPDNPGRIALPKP
| Oligonucleotide | E-score |
| --- | --- |
| CTGTCGTC | -0.161 |
| AGCGTGTA | 0.152 |
| GAATCCGC | 0.183 |
| CGATGATA | 0.0664 |
| CGTGTCGC | 0.276 |
| AAGCGGCG | 0.415 |
| CAATAAAG | -0.0322 |
| CCTCGACC | -0.125 |
| GATTGGCC | -0.0266 |
| ATTGGCAC | -0.355 |
| AATAATCC | -0.0621 |
| AAAGCTGG | -0.131 |
| CAAACCTC | -0.197 |
| TATAAGGA | -0.0592 |
| CGAGAGGA | -0.129 |
| TCGCCACA | 0.0435 |
| ATATGGTA | -0.149 |
| GCGGTCCA | 0.235 |
| CATTTCGA | -0.129 |
| CGACAGAA | 0.0679 |
| ACATGGCC | 0.0844 |
| AAATCAGT | -0.0713 |
| CATCGACC | -0.0912 |
| GCATGCCC | 0.221 |
| CTTGTCAA | -0.0629 |

Study 4 — technique: RNA Bind-n-Seq; molecule type: RNA; medium: in vitro; tested at: 200 nM; notes: whole 134-nt RNA, ends assumed; with: 150 mM LiCl; baseline: input library; reading: higher = stronger binding; all molecules: 7-deaza-guanosine replaces G
Target: Fragile X messenger ribonucleoprotein 1, C-terminal low-complexity region (Fmr1, Mus musculus, UniProt P35922)
Constant ends, left off below: GGGAGUUCUACAGUCCGACGAUC … UGGAAUUCUCGGGUGUCAAGG
| Oligonucleotide | log2 enrichment |
| --- | --- |
| AGUCCUGUGCUACACAUCGUAUGUACCGAAUCGGAAAAAAGGAAAAAAGGAAAAAAGGAAAGUAUUAUGUUACGCCGUUCGGAUCUGCAC | -1.66 |
| GCAGGAAGUAAAAGCAAAUGGAAAUGCUUCGGAUAGUGGCAGGGGUGGGGGUUGCUAAGGAAAGGGUGGGAUGGGAGUGGGUAAAGAGUU | 1.58 |
| GUCCUGUGCUACACAUCGUAUGUACCGAAUCGGGGAAAGGGGUGGGGAAAAAAAGGGGAAAGUAUUAUGUUACGCCGUUCGGAUCUGCAC | -0.289 |
| GUCCUGUGCUACACAUCGUAUGUACCGAAUCGGUUUUUUGGGUUUUUUGGUUUUUUGGAAAGUAUUAUGUUACGCCGUUCGGAUCUGCAC | -1.57 |
| GCAGGAAGUAAAAACAAAUGGAAAUGCUUCGGAUAGUGGCAGGGGUGGGGGUUGCUAAGGAAAGGGUGGGAUGGGAGUGGGGAAAGAGUU | 1.2 |
| UCCUCAAGUCCUGUGCUACACAUCGUAUGUACCGAAUCGGAAGGAAGGAAGGAAAGUAUUAUGUUACGCCGUUCGGAUCUGCACUUCCAG | -0.0131 |
| UGGGAGGUGGAUUUUGUUUGUUUUUUUAGCUCAUUUCCAGGGGUGGGAAUUUUUUUUUAAUAUGUGUCAUGAAUAAAGUUGUUUUUGAAA | 0.781 |
| CCUGUGCUACACAUCGUAUGUACCGAAUCGGGCCCCCCGGGCCCCCCGGGGCCCCCCGGGGAAAGUAUUAUGUUACGCCGUUCGGAUCUG | -2.3 |
| UCCUGUGCUACACAUCGUAUGUACCGAAUCGGGGAAAGGGGUUUUUUUGGGGUUUGGGGAAAGUAUUAUGUUACGCCGUUCGGAUCUGCA | -1.11 |
| CCUGUGCUACACAUCGUAUGUACCGAAUCGGUUUUUUUGGGUUUUUUUGGUUUUUUUGGGAAAGUAUUAUGUUACGCCGUUCGGAUCUGC | -0.834 |
| ACCAUGCAGGUGGGCAUCUUUGGGUAGUGGGGCAAGGGGGGGAUAGGGAGGGGGGUAACACUUUGGGAACAGGUGGUCCCAGGUCGUUUC | 1.39 |

Some of these lines once more (study 1):
| Oligonucleotide | bound/input enrichment |
| --- | --- |
| ACACAAUAUGAGACCAACAGCAUGGACUUCAAAGUCGGGGCAGAUGGGACAGUCUUCGCCACCCGGGAGUUGAAGAUCCCCUCCGAGCAGGUGGCGUUCACGGUGACUGCAUGGGACAGC | 0.165 ratio |
| AGCACAACCCCAGCAAAGCUCAGGAACCCUUGUACAAGUGAACAAAACUGCACCAGCCCAUUUAGCUACAAAAAUGUGCUUAGUCUUACUGACAGAGGAGAGUUUUUUAAUGAACUUGUU | 1.4 ratio |
| GUAUUUGUGCGCUCCCCACUCGUGUUUUUAAGUGUAUUUUUAUAAGAUACAUGUAUUUACAAUUGAGCUUUUGUUACUAUAAUACUGAAUGCUACUGGAGAUUAUGAAAAAUGUUUCAAU | 0.158 ratio |
| UGGCGCCUGCGCUCCCCACUCGUGUUUGUAUUUUUAUUUUUAUAAGAUACAUGUAUUUACAAUUGAGUUUUUGAUUAAUAAUGCUGAAAUGCUACUGGAGAUUAUGAAAAAUGUUUCAAU | 0.29 ratio |
